Assay results of several laboratories.
Numbers after ± are the reported error. ≈ marks a conversion by molar mass, not a printed value.

C=CC(=O)N1[C@@H](c2ccc3c(c2)OCO3)c2[nH]c3ccccc3c2C[C@H]1C(=O)N1CCN(C)CC1  relative co-enrichment (human cyclin E1 wild type-3xFLAG:CDK2; co-IP with TMT proteomics, refers to: PRPF19; concentration not given, Q9UMS4; reference: wild type DMSO): 76%
CC(C)(C)c1cc(-c2ccc3cccnc3n2)nc(-c2ccc3cccnc3n2)c1.[Cl-].[Cl-].[Ru+2].c1ccc2cc3nc4c5cccnc5c5ncccc5c4nc3cc2c1  EC50 (B16-F10; photocytotoxicity, resazurin; visible light 400-700 nm, 20 mW, 100 J/cm2): 1650 nM
Cc1ncsc1-c1ccc(C(C)NC(=O)C2CC(O)CN2C(=O)C(NC(=O)CCCCCCCCCCN2CCCC(Nc3ncc(Cl)c(Nc4ccccc4S(=O)(=O)C(C)C)n3)C2)C(C)(C)C)cc1 (stereo not shown)  log2 fold change (22Rv1; RNA-seq, refers to: ZNF514 mRNA; concentration not given; reference: DMSO): -2.1
CC(C)c1ccc(N(C)c2ccc3c(c2)OCC[C@H]3CNc2cnccc2C(=O)O)cc1  IC50 (HSC-2; cell viability; 7 days): 7.99 nM
C=CC(=O)Nc1cccc(Cn2ncc3cnc(Nc4cnn(CCOC)c4)nc32)c1  percent of control (PIM2 human; binding, KINOMEscan; 100 nM; lower = stronger binding): 100%
O=C(N/N=C/c1ccc2c(ccc[n+]2Cc2ccccc2)c1)c1cccc(C(=O)N/N=C/c2ccc3c(ccc[n+]3Cc3ccccc3)c2)c1  ΔTm (telomeric G4 DNA hybrid-2; FRET melting; 1 µM, DNA 0.2 µM, with: duplex DNA competitor 10 µM): 16 ± 0.6 °C
CNS(=O)(=O)Nc1nccc(Cc2c(C)c3ccc(Oc4ncccc4F)cc3oc2=O)c1F  IC50 (MDA-MB-157; cell viability; 7 days): > 1000 nM
COc1cc(O)ccc1CCC(c1ccc(O)cc1)c1cc2c(c(C)c1O)OC(c1ccc(O)cc1)CC2 (mixture of isomers)  LTB4 level (human blood; 1 µM, with: A23187): 2060 ± 1030 pg/mL
C[n+]1cc(/C=N/NC(=O)C(=O)N/N=C/c2cc3ccccc3[n+](C)c2)cc2ccccc21  ΔTm (telomeric G4 DNA hybrid-2; FRET melting; 1 µM, DNA 0.2 µM, with: duplex DNA competitor 10 µM): 2.5 ± 0.2 °C
C=C(NC(=O)c1csc(-c2nc3c(cc2O)-c2nc(cs2)C(=O)NC(C(C)O)C(=O)NC(=C(C)OC)c2nc(cs2)C(=O)NC2c4nc(cs4)C(=O)NC(COC(=O)c4c5c6c(cccc6n4O)COC(=O)C(OC4CC(C)(O)C(N(C)C)C(C)O4)C2OC5)c2nc-3cs2)n1)C(N)=O (stereo not shown)  ED50 (Streptococcus pneumoniae; -25, immunocompromised mice, lung infection; bid dosing): 4.33 mg/kg
CC(=O)[O-].O.O.[O-]c1ccc(Br)cc1C=NCCN1CCOCC1.[Zn+2]  ferric reducing power (FRAP; 80 µM): 14.7%
O=C(N/N=C/c1ccc2c(ccc[n+]2Cc2ccccc2)c1)c1cncc(C(=O)N/N=C/c2ccc3c(ccc[n+]3Cc3ccccc3)c2)n1  ΔTm (telomeric G4 DNA hybrid-2; FRET melting; 1 µM, DNA 0.2 µM, with: duplex DNA competitor 10 µM): 22.7 ± 0.7 °C
O=C1C(O)=C([C@H]2CC[C@H](c3ccc(Cl)cc3)CC2)C(=O)c2ccccc21  EC50 (Toxoplasma gondii; tachyzoite growth, luciferase; ME49-Fluc): 99 nM
N=C(N)NCCC[C@@H]1NC(=O)[C@H](CCCNC(=N)N)NC(=O)[C@@H](C(c2ccccc2)c2ccccc2)NC(=O)[C@H](Cc2c[nH]c3ccccc23)NC(=O)[C@@H](C(c2ccccc2)c2ccccc2)NC(=O)[C@@H](CCCNC(=N)N)NC(=O)[C@@H](CCCNC(=N)N)NC1=O  MIC (Blastomyces dermatitidis; BD-1): 2 µg/mL (≈ 1.59 µM)
C[n+]1ccc(/C=N/NC(=O)c2ccc3ccc4ccc(C(=O)N/N=C/c5cc[n+](C)cc5)nc4c3n2)cc1  ΔTm (telomeric G4 DNA hybrid-2; FRET melting; 1 µM, DNA 0.2 µM): 25.5 ± 0.9 °C
CN1CCCNC(=O)c2cccc(c2)C(=O)NCCCN(C)CCCNc2cccc3c2C(=O)c2cccc(c2C3=O)NCCC1  log2 fold change (SAS; RNA-Seq, refers to: TLK1 mRNA; 1 µM, 6 h; reference: untreated cells): -0.972
O=C(N/N=C/c1ccc(C[n+]2ccccc2)cc1)N/N=C/c1ccc(C[n+]2ccccc2)cc1  ΔTm (telomeric G4 DNA hybrid-2; FRET melting; 1 µM, DNA 0.2 µM): 3.9 ± 2 °C
Nc1ncc(-c2cc(-c3cnn(CC(F)(F)F)c3)ncc2F)nc1C(=O)NC1CNCC(F)C1 (stereo not shown)  remaining binding (PIKFYVE; KINOMEscan; 1 µM; reference: DMSO control): 81%
O=C(N/N=C/c1cc[n+](Cc2ccccc2)c2ccccc12)N/N=C/c1cc[n+](Cc2ccccc2)c2ccccc12  ΔTm (telomeric G4 DNA hybrid-2; FRET melting; 1 µM, DNA 0.2 µM): 14.2 ± 0.5 °C
COC1CN([C@H]2CC[C@H]([C@@]3(C)Oc4c(Cl)cc(C(=O)NCc5c(SC)cc(C)[nH]c5=O)c(C)c4O3)CC2)C1  log2 fold change (RNA-seq, refers to: SORBS1; human, whole blood; dose not given, 24 h; reference: pretreatment baseline): 1.59
O=C(N/N=C/c1cc[n+](Cc2ccccc2)c2ccccc12)C(=O)N/N=C/c1cc[n+](Cc2ccccc2)c2ccccc12  ΔTm (telomeric G4 DNA hybrid-2; FRET melting; 1 µM, DNA 0.2 µM, with: duplex DNA competitor 10 µM): 7.9 ± 0.6 °C
c1ccc(-c2n[nH]cc2-c2ccnc3ccccc23)nc1  log2 fold change (SAK1 (Candida albicans); kinase binding, MIB/MS competition; Candida albicans lysate; 10 µM; reference: DMSO): 0.04

A few entries again:
C=CC(=O)Nc1cccc(Cn2ncc3cnc(Nc4cnn(CCOC)c4)nc32)c1  percent of control (PIM2 human; binding, KINOMEscan; 100 nM; lower = stronger binding): 100%
O=C(N/N=C/c1ccc2c(ccc[n+]2Cc2ccccc2)c1)c1cccc(C(=O)N/N=C/c2ccc3c(ccc[n+]3Cc3ccccc3)c2)c1  ΔTm (telomeric G4 DNA hybrid-2; FRET melting; 1 µM, DNA 0.2 µM, with: duplex DNA competitor 10 µM): 16 ± 0.6 °C
CNS(=O)(=O)Nc1nccc(Cc2c(C)c3ccc(Oc4ncccc4F)cc3oc2=O)c1F  IC50 (MDA-MB-157; cell viability; 7 days): > 1000 nM
